Measured values pooled from the literature.
A part holds a random share of what one study measured.

Study 1 — method: aptamer microarray, sandwich; molecule type: DNA with 2'F-ANA; sample: in vitro; concentration: 200 nM; added: Cy3 exosite-II aptamer, 400 nM; direction: higher = stronger binding; strand: GGTTGGTGTGGTTGG
Target: Prothrombin, mature alpha-thrombin (F2, Homo sapiens, UniProt P00734)
Notes: whole 15-mer aptamer, many near background
For `2'F-ANA at 2 5 6 7 12 14 15`, “mean fluorescence intensity” read 50 a.u.
Under “mean fluorescence intensity”, `2'F-ANA at 1 2 3 5 7 10 13 14` is recorded as 62 a.u.
`2'F-ANA at 1 2 4 8 10 11 14 15` — result for “mean fluorescence intensity”: 48.7 a.u.
Under “mean fluorescence intensity”, `2'F-ANA at 1 2 3 5 6 9 12` is recorded as 126 a.u.
For `2'F-ANA at 1 5 6 9 13`, “mean fluorescence intensity” read 51.6 a.u.
`2'F-ANA at 1 2 6 7 8 12 13 14` — result for “mean fluorescence intensity”: 69.3 a.u.
`2'F-ANA at 4 5 7 8 14`: “mean fluorescence intensity” 47.7 a.u.

Study 2 — method: RNAcompete; molecule type: RNA; sample: in vitro; concentration: 20 nM; notes: 7-mer, probes averaged, single round; relative to: mean of 7-mers; direction: higher = stronger binding
Target: PABPC1L2, full length, GST fusion (mouse, UniProt A0ABA7IW68)
Residues (chain): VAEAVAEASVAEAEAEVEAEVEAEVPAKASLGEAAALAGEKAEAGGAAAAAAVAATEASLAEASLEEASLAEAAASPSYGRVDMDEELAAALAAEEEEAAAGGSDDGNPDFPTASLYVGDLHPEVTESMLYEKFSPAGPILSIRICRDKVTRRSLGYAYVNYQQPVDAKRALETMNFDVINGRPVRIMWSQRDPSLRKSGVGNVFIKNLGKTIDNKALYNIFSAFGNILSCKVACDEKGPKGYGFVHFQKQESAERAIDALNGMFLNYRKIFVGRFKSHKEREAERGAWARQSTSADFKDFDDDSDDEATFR
`CUGUUAC` gave a 7-mer Z-score of -0.335.
`CACCGAA` gave a 7-mer Z-score of 0.0406.
`AUUAGCC` gave a 7-mer Z-score of -0.209.
With `AGCUUAU` the 7-mer Z-score was -0.248.
The 7-mer Z-score of `CCGUCGU` is reported as -0.441.
`UGUGGCA` gave a 7-mer Z-score of 0.196.

Study 3 — method: protein binding microarray; molecule type: double-stranded DNA, one strand shown; sample: in vitro; concentration: not given; relative to: not given; direction: higher = stronger binding
Target: Histone acetyltransferase KAT6A, both winged helices, GST fusion (KAT6A, Homo sapiens, UniProt Q92794, residues 1-181)
Notes: 8-mer, flanks averaged, mean of 2 arrays, mostly near background
Residues (chain): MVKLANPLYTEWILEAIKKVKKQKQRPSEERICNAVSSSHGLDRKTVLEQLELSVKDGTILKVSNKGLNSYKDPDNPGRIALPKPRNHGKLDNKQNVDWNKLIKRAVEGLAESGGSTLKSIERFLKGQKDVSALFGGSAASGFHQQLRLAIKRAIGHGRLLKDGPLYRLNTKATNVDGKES
`CGCCATAC` has an E-score of 0.0617.
The E-score of `TTACTCAA` is reported as -0.0652.
For `ATACGCCC`, the E-score was 0.166.
`GCAAGGCC` gave an E-score of 0.0472.
`GTAAGGGA` has an E-score of -0.0438.
With `AGTCTTGG` the E-score was -0.0559.
`ACGCAATG` has an E-score of 0.0432.
For `CGCCGCCA`, the E-score was 0.314.
`CCTACCTA` gave an E-score of -0.248.

Mixed results
`PhoQ, residues 284 288 289 292 302 303 AGGLSV` has a fold induction of 0.479 (PhoP, residues 12 14 15 18 19 HHYTI (Escherichia coli, UniProt P23836); Sort-seq, refers to: YFP reporter; E. coli; PhoQ-PhoP variant library, added: 10 µM Mg2+; relative to: high Mg2+ state, higher = stronger signaling).
